Published values collected from several papers.
Compare with care: the assays were run in different laboratories. Numbers after ± are the reported error.

Compound | system | setting | how to read | measurement | value
COC(=O)c1ccc2c(c1)NC(=O)/C2=C(\Nc1ccc(N(C)C(=O)CN2CCN(C)CC2)cc1)c1ccccc1 | healthy human controls matched to Child-Pugh A, urine and plasma | oral, 100 mg single dose, geometric mean |  | renal clearance (0-72 h) | 17.2 mL/min
CCOc1ccc(Cc2cc([C@]34OC[C@](CO)(O3)[C@@H](O)[C@H](O)[C@H]4O)ccc2Cl)cc1 | human, type 2 diabetes, mild renal impairment | oral, 15 mg |  | renal clearance | 0.99 mL/min
C[C@@H]1CCC[C@H](n2cnc(-c3cc(Cl)ccc3-n3cc(Cl)nn3)cc2=O)c2cc(ccn2)-c2c(cnn2C(F)F)NC1=O | human, moderate renal impairment, plasma and urine | oral, 60 mg single dose |  | renal clearance | 15.2 mL/min
CC(C)(C)OC[C@@H]1C(=O)NCCN1C(=O)C[C@H](N)Cc1cc(F)c(F)cc1F | human | 10 mg once daily, steady state, day 10 |  | renal clearance | 280 ± 117 mL/min
CC(C)(Sc1ccncc1-c1ccc(C#N)c2ccccc12)C(=O)O | humans, male, normal renal function | oral, 15 mg |  | renal clearance (0-72 h) | 13.5 mL/min
COc1cc(C(=O)NC2CCN(C)CC2)c(F)cc1Nc1ncc(C(F)(F)F)c(Oc2cccc3c2C(=O)N(C)C3)n1 | human patients, plasma and urine | oral, 200 mg once daily, 0-24 h, steady state, cycle 1 |  | renal clearance | 13.7 mL/min
CC(C)(Sc1ccncc1-c1ccc(C#N)c2ccccc12)C(=O)O | human, male, urine and plasma | oral, 10 mg, added: allopurinol 300 mg | reference: combination over alone | renal clearance ratio | 105%
NCCCS(=O)(=O)O | human, both sexes, urine and plasma | mean across cohorts and days |  | renal clearance | 128 to 221 mL/min
Oc1ncnc2[nH]ncc12 | human, male, urine and plasma | oral, 10 mg, added: allopurinol 300 mg | reference: combination over alone | renal clearance ratio | 87.5%
O=C(c1cccnc1-c1ccncc1)N1CCC(O)(Cc2ccccc2)CC1 | healthy human, urine | oral, 400 mg once daily, day 14, arithmetic mean |  | renal clearance | 6.33 mL/min
CC[C@@H]1CN(C(=O)NCC(F)(F)F)C[C@@H]1c1cnc2cnc3[nH]ccc3n12 | human, normal renal function, urine and plasma | oral, 15 mg single dose, extended release, fasted, geometric mean |  | renal clearance | 88.7 mL/min

Repeated from above:
Compound | system | setting | how to read | measurement | value
COC(=O)c1ccc2c(c1)NC(=O)/C2=C(\Nc1ccc(N(C)C(=O)CN2CCN(C)CC2)cc1)c1ccccc1 | healthy human controls matched to Child-Pugh A, urine and plasma | oral, 100 mg single dose, geometric mean |  | renal clearance (0-72 h) | 17.2 mL/min
